Assay results gathered from unrelated publications.
Lines come from different studies, so protocols differ. Values joined by “and” are separate records of one study, mostly repeats; a detail may differ. ± gives the spread as reported.
Cell line: HeLa

CC(C)C[C@H](NC(=O)[C@H](CC(C)C)NC(=O)[C@H](CCC(=O)O)NC(=O)[C@H](CCC(=O)O)NC(=O)[C@H](CC(C)C)NC(=O)[C@H](Cc1c[nH]cn1)NC(=O)[C@H](Cc1c[nH]cn1)NC(=O)[C@H](CC(C)C)NC(=O)[C@H](CC(C)C)NC(=O)[C@H](CCC(=O)O)NC(=O)[C@H](CCC(=O)O)NC(=O)[C@@H](N)CC(C)C)C(=O)N[C@@H](Cc1c[nH]cn1)C(=O)N[C@@H](Cc1c[nH]cn1)C(N)=O
IC50 (cell growth or viability, MTT; pH 7.4): > 100000 nM

C#CCCCC[C@H](C)C[C@@H](C)C(=O)N(C)[C@@H](C)C(=O)N1CCC[C@H]1C(=O)N(C)[C@H](C(=O)N(C)[C@H](C(=O)OC)C(C)C)C(C)C
IC50 (cell growth or viability, SRB): 3000 nM and ~3000 nM

Cc1ccc(C(c2c(C)nn(-c3ccccc3)c2O)c2c(C)nn(-c3ccccc3)c2O)cc1
IC50 (cell growth or viability, MTT; 48 h): 38400 nM

O=C(Cc1ccc2ccccc2c1)N[C@H](Cc1ccccc1)C(=O)N[C@H](Cc1ccccc1)C(=O)N[C@H](Cc1ccc(O)cc1)C(=O)N[C@H](Cc1ccc(O)cc1)C(=O)O
IC50 (cell growth or viability, MTT): > 500 µg/mL

C[C@H]1O[C@@H](O[C@H]2CC[C@@]3(C)[C@H](CC[C@@H]4[C@@H]3CC[C@]3(C)[C@@H](C5=CC(=O)OC5)[C@@H](O)C[C@]43O)C2)C[C@H](O)[C@@H]1O[C@@H]1O[C@H](CO)[C@@H](O)[C@H](O)[C@H]1O
IC50 (cell growth or viability, MTT; 48 h): 160 nM

CC[C@H](C)[C@H](NC(=O)[C@H](C)NC(=O)[C@H](CCCCN)NC(=O)[C@H](CCCCN)NC(=O)[C@@H](N)CCCNC(=N)N)C(=O)N[C@@H](CCCCN)C(=O)N[C@@H](CC(C)C)C(=O)N[C@H](C(=O)N[C@@H](CCCCN)C(=O)N[C@@H](CCCCN)C(=O)N[C@@H](CC(C)C)C(=O)N[C@H](C(=O)N[C@@H](CCCCN)C(=O)N[C@@H](CCCCN)C(=O)N[C@@H](CC(C)C)C(=O)N[C@@H](CCCCN)C(=O)N[C@@H](CCCCN)C(=O)N[C@@H](C)C(=O)N[C@@H](CC(C)C)C(=O)N[C@@H](CCCCN)C(=O)O)C(C)C)C(C)C
IC50 (cell growth or viability, MTT): > 128 µg/mL

CC[C@H](C)[C@@H]1NC(=O)[C@H](Cc2c[nH]c3ccccc23)NC(=O)[C@H](C)NC(=O)[C@H](C(C)C)NC(=O)[C@H](CC(C)C)NC(=O)[C@H](Cc2c[nH]c3ccccc23)NC1=O
IC50 (cell growth or viability, MTT; 48 h): 52.1 µg/mL

C[C@H]1[C@H](OC(=O)CCC(=O)OCCc2ccc(OC(=O)CCC(=O)O[C@@H]3O[C@@H]4O[C@@]5(C)CC[C@H]6[C@H](C)CC[C@@H]([C@H]3C)[C@@]46OO5)cc2)O[C@@H]2O[C@@]3(C)CC[C@H]4[C@H](C)CC[C@@H]1[C@@]24OO3
IC50 (cell growth or viability, MTT): 2160 nM

NC(=O)CC[C@@H](NC(=O)[C@@H](CCC(N)=O)NC(=O)[C@@H](CC(N)=O)NC(=O)[C@@H](CC(N)=O)NC(=O)CNC(=O)[C@@H](Cc1ccccc1)NC(=O)Cc1ccc2ccccc2c1)C(=O)N[C@H](CC(N)=O)C(=O)N[C@H](Cc1ccc(OP(=O)(O)O)cc1)C(=O)O
IC50: 264000 ± 28400 nM

Repeated from above:
C[C@H]1O[C@@H](O[C@H]2CC[C@@]3(C)[C@H](CC[C@@H]4[C@@H]3CC[C@]3(C)[C@@H](C5=CC(=O)OC5)[C@@H](O)C[C@]43O)C2)C[C@H](O)[C@@H]1O[C@@H]1O[C@H](CO)[C@@H](O)[C@H](O)[C@H]1O
IC50 (cell growth or viability, MTT; 48 h): 160 nM
